# Measured values of several laboratories.
# A part holds a random share of what one study measured.

# Sample 1
# Target: TAR DNA-binding protein 43, full length, His tag (TARDBP, Homo sapiens, UniProt Q13148, residues 1-414)
# Method: RNA Bind-n-Seq
# Form: RNA
# Sample: in vitro
# Tested at: 20 nM
# Notes: 6-mer, flanks averaged, single round
# Together with: 150 mM LiCl
# Relative to: input library
# Direction: higher = stronger binding
Strand,6-mer enrichment (R)
AAGCAG,0.891
CGGUCG,0.965
CGCUUC,0.866
ACAGCU,0.816
CCUCAC,0.942
CUACUG,0.869
AGUGAA,1.06
ACGAAG,0.836

# Sample 2
# Target: Interferon regulatory factor 7, full length, phosphomimetic (IRF7, Homo sapiens, UniProt Q92985, residues 1-503, S471D/S472D/S475D/S476D/S477D/S483D/S484D/S487D)
# Chain of UniProt Q92985 (whole entry, unmodified, looked up): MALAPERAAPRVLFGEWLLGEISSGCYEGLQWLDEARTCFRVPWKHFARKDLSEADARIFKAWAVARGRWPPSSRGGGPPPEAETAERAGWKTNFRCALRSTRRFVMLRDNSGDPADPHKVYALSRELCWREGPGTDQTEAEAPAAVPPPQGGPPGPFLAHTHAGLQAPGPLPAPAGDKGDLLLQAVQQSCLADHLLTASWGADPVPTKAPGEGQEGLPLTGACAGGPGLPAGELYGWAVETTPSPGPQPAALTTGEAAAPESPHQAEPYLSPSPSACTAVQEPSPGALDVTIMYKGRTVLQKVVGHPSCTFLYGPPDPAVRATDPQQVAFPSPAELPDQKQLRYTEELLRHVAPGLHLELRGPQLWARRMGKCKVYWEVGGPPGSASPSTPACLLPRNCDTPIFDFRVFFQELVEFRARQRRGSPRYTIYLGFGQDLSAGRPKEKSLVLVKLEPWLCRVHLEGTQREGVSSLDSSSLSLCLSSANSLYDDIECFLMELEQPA
# Method: protein-binding microarray
# Form: double-stranded DNA, one strand shown
# Sample: in vitro
# Tested at: 2200 nM top
# Notes: 60-bp whole probe
# Together with: salmon DNA 0.4 mg/ml
# Relative to: random background probes
# Direction: higher = stronger binding
# Shared flanks, not repeated: GCCTAGCAC … GTCTTGATTCGCTTGACGCTGCTG
Strand,fitted relative affinity
TCACTTCTTTTTTATTCTACTGTGCTA,2.24 z-score
TCACGTATATTCCCTAGAACTGTGCTA,1.47 z-score
TTCAGTTTCACTGCTGCCCTGTGCTAG,3.03 z-score
TTAGATCTCAGTTTGGATTAGTGCTAG,0.462 z-score
GACGAACTGAGGACTGGAGACGTGCTA,-0.336 z-score
TTAGAACTGAGATTGGATTAGTGCTAG,-0.798 z-score
TCAACTCTGCCTCTAACACTGTGCTAG,1.07 z-score
TTAGGTTTCGTACTGGGTTAGTGCTAG,3.4 z-score

# Other studies, line by line
Substance,tested on,test,test system,conditions,measurement,value
"HSP90AB1 (Homo sapiens, UniProt P08238)","HSPA1B (Homo sapiens, UniProt P0DMV9)",cross-linking MS,,hits only,interaction screen,cross-linked
CC(=O)CC(c1ccccc1)c1c(O)c2ccccc2oc1=O (stereo not drawn),Sarcocystis neurona,parasite growth,,"10 µM, 96 h, first screen",inhibition,-4.2%
"MRE11 (Homo sapiens, UniProt P49959)","RAD50 (Homo sapiens, UniProt Q92878)",cross-linking MS,,hits only,interaction screen,cross-linked
"COPB2 (Homo sapiens, UniProt P35606)","COPA (Homo sapiens, UniProt P53621)",cross-linking MS,cell fractions,together with: DHSO,cross-linked residues,E832 to E714
"RPN1 (Homo sapiens, UniProt P04843)","STT3A (Homo sapiens, UniProt P46977)",cross-linking MS,,hits only,interaction screen,cross-linked

# For quick reference, copied from above (sample 1):
Strand,6-mer enrichment (R)
CGGUCG,0.965
AAGCAG,0.891
